Measurements pooled from the literature.
Values joined by “and” are separate records of one study, mostly repeats; a detail may differ. ± marks the error that the study gave.
Melanocortin receptor 4: Melanocortin receptor 4 (Mus musculus, UniProt P56450)
Sequence of UniProt P56450 (whole entry, looked up): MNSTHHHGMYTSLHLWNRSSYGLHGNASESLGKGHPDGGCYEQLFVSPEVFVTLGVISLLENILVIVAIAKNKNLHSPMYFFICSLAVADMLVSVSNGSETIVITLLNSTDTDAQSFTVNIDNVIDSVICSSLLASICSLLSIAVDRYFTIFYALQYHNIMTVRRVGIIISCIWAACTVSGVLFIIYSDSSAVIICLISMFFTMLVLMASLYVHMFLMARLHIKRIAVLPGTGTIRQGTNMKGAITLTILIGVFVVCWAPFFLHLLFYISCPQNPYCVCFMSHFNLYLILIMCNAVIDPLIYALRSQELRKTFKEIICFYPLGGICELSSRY
DNA topoisomerase IB: DNA topoisomerase IB (Leishmania donovani, UniProt A0A3Q8IHS4+Q8WQM6)
P2RY2: P2Y purinoceptor 2 (P2RY2, Homo sapiens, UniProt P41231)
Sequence of UniProt P41231 (whole entry, looked up): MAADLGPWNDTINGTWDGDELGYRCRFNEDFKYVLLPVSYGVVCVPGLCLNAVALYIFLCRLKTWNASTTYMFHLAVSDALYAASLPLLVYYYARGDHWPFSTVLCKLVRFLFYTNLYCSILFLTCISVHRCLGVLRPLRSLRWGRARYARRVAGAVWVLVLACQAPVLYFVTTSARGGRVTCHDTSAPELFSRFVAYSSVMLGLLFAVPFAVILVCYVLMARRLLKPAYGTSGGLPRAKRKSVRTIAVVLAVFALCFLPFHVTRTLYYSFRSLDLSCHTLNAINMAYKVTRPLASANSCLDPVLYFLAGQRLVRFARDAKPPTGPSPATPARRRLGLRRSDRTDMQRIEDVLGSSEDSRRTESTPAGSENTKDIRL
CHRM1: Muscarinic acetylcholine receptor M1 (CHRM1, Homo sapiens, UniProt P11229)
Sequence of UniProt P11229 (whole entry, looked up): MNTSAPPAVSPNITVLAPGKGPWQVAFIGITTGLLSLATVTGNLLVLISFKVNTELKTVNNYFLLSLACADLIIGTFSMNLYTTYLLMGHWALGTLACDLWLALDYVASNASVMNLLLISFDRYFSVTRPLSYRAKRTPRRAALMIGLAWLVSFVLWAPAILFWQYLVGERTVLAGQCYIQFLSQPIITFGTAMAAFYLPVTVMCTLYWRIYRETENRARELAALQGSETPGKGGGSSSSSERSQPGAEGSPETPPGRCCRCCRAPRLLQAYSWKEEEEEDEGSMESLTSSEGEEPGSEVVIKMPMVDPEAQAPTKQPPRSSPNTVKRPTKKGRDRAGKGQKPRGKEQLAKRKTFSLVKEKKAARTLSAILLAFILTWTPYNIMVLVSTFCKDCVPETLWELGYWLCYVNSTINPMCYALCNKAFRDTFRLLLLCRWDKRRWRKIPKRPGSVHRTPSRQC
GPBAR1: G-protein coupled bile acid receptor 1 (GPBAR1, Homo sapiens, UniProt Q8TDU6)
Sequence of UniProt Q8TDU6 (whole entry, looked up): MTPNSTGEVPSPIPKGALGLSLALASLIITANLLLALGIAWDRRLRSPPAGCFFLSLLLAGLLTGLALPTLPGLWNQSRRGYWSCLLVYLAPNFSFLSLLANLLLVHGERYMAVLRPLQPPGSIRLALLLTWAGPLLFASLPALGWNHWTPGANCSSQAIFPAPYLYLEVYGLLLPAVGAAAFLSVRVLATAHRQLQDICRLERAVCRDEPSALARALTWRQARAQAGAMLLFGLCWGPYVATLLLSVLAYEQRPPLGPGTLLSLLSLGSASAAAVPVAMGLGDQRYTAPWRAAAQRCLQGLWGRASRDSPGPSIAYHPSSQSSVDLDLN
ATP2A2: ATP2A2 (Sus scrofa, UniProt P11607)
Sequence of UniProt P11607 (whole entry, looked up): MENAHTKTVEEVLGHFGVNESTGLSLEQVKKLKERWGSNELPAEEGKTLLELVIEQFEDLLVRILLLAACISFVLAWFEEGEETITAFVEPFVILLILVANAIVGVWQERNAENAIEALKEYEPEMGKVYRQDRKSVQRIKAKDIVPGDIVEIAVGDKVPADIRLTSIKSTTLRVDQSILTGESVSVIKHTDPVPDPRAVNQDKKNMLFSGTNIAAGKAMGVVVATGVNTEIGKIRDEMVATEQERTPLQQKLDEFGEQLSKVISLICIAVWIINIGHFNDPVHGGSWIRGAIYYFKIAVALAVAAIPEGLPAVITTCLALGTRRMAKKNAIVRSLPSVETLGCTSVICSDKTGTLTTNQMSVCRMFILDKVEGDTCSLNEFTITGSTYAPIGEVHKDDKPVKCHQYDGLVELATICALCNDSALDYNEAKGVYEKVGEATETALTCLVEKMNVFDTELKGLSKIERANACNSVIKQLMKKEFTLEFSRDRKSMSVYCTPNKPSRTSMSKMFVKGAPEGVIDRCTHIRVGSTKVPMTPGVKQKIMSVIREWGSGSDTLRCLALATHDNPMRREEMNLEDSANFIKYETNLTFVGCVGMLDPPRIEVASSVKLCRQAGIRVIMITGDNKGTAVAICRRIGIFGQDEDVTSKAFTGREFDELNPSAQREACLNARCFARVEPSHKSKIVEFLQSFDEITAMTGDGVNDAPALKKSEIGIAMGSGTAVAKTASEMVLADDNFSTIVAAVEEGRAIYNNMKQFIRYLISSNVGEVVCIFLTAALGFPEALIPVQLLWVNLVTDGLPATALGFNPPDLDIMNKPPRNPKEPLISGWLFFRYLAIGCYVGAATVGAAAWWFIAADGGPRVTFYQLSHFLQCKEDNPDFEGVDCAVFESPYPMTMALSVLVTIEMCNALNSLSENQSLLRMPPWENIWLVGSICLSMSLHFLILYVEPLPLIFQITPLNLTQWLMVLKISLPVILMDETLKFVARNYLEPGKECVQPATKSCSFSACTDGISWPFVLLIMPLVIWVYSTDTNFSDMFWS
Sequence of UniProt P42261 (whole entry, looked up): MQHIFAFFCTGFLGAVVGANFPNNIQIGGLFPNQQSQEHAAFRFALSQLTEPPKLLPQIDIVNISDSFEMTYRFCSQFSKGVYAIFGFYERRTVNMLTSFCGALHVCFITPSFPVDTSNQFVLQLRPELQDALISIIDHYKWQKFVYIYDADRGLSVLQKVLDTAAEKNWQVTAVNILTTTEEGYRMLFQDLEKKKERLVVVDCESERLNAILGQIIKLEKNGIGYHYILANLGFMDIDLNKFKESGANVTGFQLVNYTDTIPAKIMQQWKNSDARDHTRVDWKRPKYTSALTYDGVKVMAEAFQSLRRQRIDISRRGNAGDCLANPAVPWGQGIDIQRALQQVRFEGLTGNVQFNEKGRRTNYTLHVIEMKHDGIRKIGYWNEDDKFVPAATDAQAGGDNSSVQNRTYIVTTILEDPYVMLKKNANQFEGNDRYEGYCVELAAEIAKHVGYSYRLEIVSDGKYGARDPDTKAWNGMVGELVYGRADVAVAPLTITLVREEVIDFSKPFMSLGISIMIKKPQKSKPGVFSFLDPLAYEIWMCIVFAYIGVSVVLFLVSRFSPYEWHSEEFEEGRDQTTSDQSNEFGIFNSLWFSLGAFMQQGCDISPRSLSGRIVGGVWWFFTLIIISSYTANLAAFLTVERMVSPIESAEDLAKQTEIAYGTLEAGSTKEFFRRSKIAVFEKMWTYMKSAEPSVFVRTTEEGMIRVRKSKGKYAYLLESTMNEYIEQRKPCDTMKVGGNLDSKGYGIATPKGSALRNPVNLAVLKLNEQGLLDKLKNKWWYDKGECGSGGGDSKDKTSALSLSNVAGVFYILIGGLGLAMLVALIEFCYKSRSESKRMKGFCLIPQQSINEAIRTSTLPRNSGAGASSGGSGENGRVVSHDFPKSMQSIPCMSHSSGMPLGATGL
Sequence of UniProt Q13485 (whole entry, unmodified, looked up): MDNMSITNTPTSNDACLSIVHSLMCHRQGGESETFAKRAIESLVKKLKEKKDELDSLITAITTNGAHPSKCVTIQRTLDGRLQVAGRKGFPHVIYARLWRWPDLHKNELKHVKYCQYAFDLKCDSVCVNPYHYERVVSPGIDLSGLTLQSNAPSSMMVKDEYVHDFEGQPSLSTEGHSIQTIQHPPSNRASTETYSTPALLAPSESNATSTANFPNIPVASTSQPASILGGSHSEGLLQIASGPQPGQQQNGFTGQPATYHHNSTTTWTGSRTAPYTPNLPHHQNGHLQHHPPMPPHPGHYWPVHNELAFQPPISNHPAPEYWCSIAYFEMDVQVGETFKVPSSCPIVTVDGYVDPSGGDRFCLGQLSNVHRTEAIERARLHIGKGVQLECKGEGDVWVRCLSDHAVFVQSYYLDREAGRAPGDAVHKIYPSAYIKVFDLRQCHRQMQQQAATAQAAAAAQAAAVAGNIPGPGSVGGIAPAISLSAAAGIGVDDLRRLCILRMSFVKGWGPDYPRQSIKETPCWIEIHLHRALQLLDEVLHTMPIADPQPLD
Sequence of UniProt P25089 (whole entry, looked up): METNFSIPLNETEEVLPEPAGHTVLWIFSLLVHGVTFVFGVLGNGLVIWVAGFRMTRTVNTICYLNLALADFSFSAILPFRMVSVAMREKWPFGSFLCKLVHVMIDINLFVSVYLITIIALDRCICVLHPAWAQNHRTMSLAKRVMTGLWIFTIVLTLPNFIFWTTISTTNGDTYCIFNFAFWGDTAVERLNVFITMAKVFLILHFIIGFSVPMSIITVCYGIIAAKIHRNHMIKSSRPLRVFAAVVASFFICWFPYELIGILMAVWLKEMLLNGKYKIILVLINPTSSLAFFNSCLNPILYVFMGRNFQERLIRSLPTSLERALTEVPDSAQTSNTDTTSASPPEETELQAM
Sequence of UniProt P51582 (whole entry, looked up): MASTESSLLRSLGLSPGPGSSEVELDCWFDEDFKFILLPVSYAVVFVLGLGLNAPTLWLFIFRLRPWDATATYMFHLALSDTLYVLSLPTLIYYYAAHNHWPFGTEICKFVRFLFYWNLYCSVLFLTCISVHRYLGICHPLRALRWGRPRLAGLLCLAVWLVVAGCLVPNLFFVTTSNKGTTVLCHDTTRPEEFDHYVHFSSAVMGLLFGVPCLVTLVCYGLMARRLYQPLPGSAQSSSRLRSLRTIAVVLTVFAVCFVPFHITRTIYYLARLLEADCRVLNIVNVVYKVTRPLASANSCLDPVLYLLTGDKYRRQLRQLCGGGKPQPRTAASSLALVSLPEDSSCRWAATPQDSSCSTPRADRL

Compound | target or system | assay | system | conditions | scale | measurement | result
CCCC[C@H](NC(=O)[C@H](CO)NC(=O)[C@H](C)NC(=O)[C@H](CO)NC(C)=O)C(=O)N[C@@H](CCC(=O)O)C(=O)N[C@@H](Cc1c[nH]cn1)C(=O)N[C@H](Cc1ccccc1)C(=O)N[C@@H](CCCNC(=N)N)C(=O)N[C@@H](Cc1c[nH]c2ccccc12)C(=O)NCC(=O)N[C@@H](CCCCN)C(=O)N1CCC[C@H]1C(=O)N[C@H](C(N)=O)C(C)C | Melanocortin receptor 4 | – | – | – | – | EC50 | 0.00032 ± 2e-05 µM
Cn1cc(C2=C(c3cn(CCCSC(=N)N)c4ccccc34)C(=O)NC2=O)c2ccccc21 | Mothers against decapentaplegic homolog 4, with SMAD3 (Homo sapiens, UniProt Q13485, R361H) | SMAD3 binding to SMAD4 R361H, GST pull-down | – | – | – | EC50 | 2.1 ± 0.7 µM
CSCC[C@H](NC(=O)[C@H](CO)NC(=O)[C@H](C)NC(=O)[C@H](CO)NC(C)=O)C(=O)N[C@@H](CCC(=O)O)C(=O)N[C@@H](Cc1c[nH]cn1)C(=O)N[C@@H](Cc1ccccc1)C(=O)N[C@@H](CCCNC(=N)N)C(=O)N[C@@H](Cc1c[nH]c2ccccc12)C(=O)NCC(=O)N[C@@H](CCCCN)C(=O)N1CCC[C@H]1C(=O)N[C@H](C(N)=O)C(C)C | Melanocortin receptor 4 | – | – | – | – | EC50 | 0.025 ± 0.0079 µM
c1cnc2c(c1)ccc1cccnc12 | TAS2R5 (Homo sapiens, UniProt Q9NYW4) | calcium signal, agonist | – | – | – | EC50 | 22.9 µM
CCCCCCCCCC/C=C\CCCCC(=O)O | DNA topoisomerase IB | DNA relaxation, inhibitor | – | 30 min, 37 °C, with: supercoiled pHOT plasmid | – | EC50 | 80.4 ± 9.29 µM
BP(=O)(OC[C@H]1O[C@@H](n2cnc3c(N)ncnc32)[C@H](O)[C@@H]1O)OP(=O)(O)OP(=O)(O)OP(=O)(O)OC[C@H]1O[C@@H](n2cnc3c(N)ncnc32)[C@H](O)[C@@H]1O (stereo partly drawn) | P2RY2 | calcium signal, agonist, fluorescence | – | – | – | EC50 | 64.2 µM
CCC(O)/C=C/C=O (stereo not drawn) | Trpa1 (Mus musculus, UniProt Q8BLA8) | calcium signal, agonist, fluorescence | – | – | – | EC50 | 39.9 µM
Cc1c(-c2ccc(CN3C(=O)C4(CCN(C5CCCC5)C4)c4ccccc43)c(F)c2)cnn1C (stereo not drawn) | CHRM1 | acetylcholine response, positive allosteric modulator | cell-based | inactive up to 30 µM | – | EC50 | > 30 µM
CCCCCCCCCCC#CCCCC(OC)C(=O)O (racemic) | DNA topoisomerase IB | DNA relaxation, inhibitor | – | 30 min, 37 °C | – | EC50 | 16.6 ± 1.1 µM
CSCC[C@H](NC(=O)[C@H](CO)NC(=O)[C@H](Cc1ccc(O)cc1)NC(=O)[C@H](CO)NC(C)=O)C(=O)N[C@@H](CCC(=O)O)C(=O)N[C@@H](Cc1c[nH]cn1)C(=O)N[C@@H](Cc1ccccc1)C(=O)N[C@@H](CCCNC(=N)N)C(=O)N[C@@H](Cc1c[nH]c2ccccc12)C(=O)N[C@@H](C)C(=O)N[C@@H](CCCCN)C(=O)N1CCC[C@H]1C(=O)N[C@H](C(N)=O)C(C)C | Melanocortin receptor 4 | – | – | – | – | EC50 | 0.074 ± 0.02 µM
O=c1cc(-c2ccccc2OCc2ccccc2)ncn1C1CCCCC1O (stereo not drawn) | CHRM1 | allosteric agonist, IP1 accumulation | CHO-M1 cells | 1 µM, unit not given | baseline: maximum ACh response | change in baseline activity | -0.3 ± 1.7
CCCCCCCCCC/C=C\CCCCC(=O)O | DNA topoisomerase IB | DNA relaxation, inhibitor | – | 30 min, 37 °C | – | EC50 | 80.4 ± 9.3 µM
CCCC[C@H](NC(=O)[C@H](CO)NC(=O)[C@H](Cc1ccc(O)cc1)NC(=O)[C@H](CO)NC(C)=O)C(=O)N[C@@H](CCC(=O)O)C(=O)N[C@@H](Cc1c[nH]cn1)C(=O)N[C@H](Cc1ccccc1)C(=O)N[C@@H](CCCNC(=N)N)C(=O)N[C@@H](Cc1c[nH]c2ccccc12)C(=O)NCC(=O)N[C@@H](CCCCN)C(=O)N1CCC[C@H]1C(=O)N[C@@H](C)C(N)=O | Melanocortin receptor 4 | – | – | – | – | EC50 | 0.00035 ± 9e-05 µM
O=C(c1ccc(-n2nc(C(F)(F)F)c3c2CCCC3)cc1)N1CCCC1 | Glutamate receptor 1, flip isoform (GRIA1, Homo sapiens, UniProt P42261) | glutamate-induced Ca2+ flux, potentiator, FLIPR | HEK293 | with: glutamate 100 µM | – | EC50 | 20 µM and 25.1 µM
COC(=O)CC[C@@H](C)[C@H]1CC[C@H]2[C@@H]3CC[C@@H]4C[C@@H](OC(=O)CCCCCC(=O)O)CC[C@]4(C)[C@H]3CC[C@]12C | human 20S proteasome | chymotrypsin-like activity, activator | – | without PA28 | – | EC50 | > 15 µM
C[C@H](CCC(=O)N[C@H](Cc1ccc(O)cc1)C(=O)O)[C@H]1CC[C@H]2[C@@H]3[C@H](O)C[C@@H]4C[C@H](O)CC[C@]4(C)[C@H]3CC[C@]12C | GPBAR1 | G protein activation, agonist, BRET | – | – | – | EC50 | 93.7 µM
Cn1cc(-c2ccc(CN3C(=O)CCCc4ccccc43)c(F)c2)cn1 | CHRM1 | calcium response, positive allosteric modulator | HM1 cells | with: acetylcholine | – | EC50 | > 30 µM
CC(=O)N[C@@H](CO)C(=O)N[C@@H](Cc1ccc(O)cc1)C(=O)N[C@@H](CO)C(=O)N[C@@H](C)C(=O)N[C@@H](CCC(=O)O)C(=O)N[C@@H](Cc1c[nH]cn1)C(=O)N[C@H](Cc1ccccc1)C(=O)N[C@@H](CCCNC(=N)N)C(=O)N[C@@H](Cc1c[nH]c2ccccc12)C(=O)NCC(=O)N[C@@H](CCCCN)C(=O)N1CCC[C@H]1C(=O)N[C@H](C(N)=O)C(C)C | Melanocortin receptor 4 | – | – | – | – | EC50 | 0.00039 ± 0.0001 µM

Compound | target or system | assay | system | conditions | scale | measurement | result
CCN(Cc1ccccc1OC)C(=O)c1cccc(Br)c1 | ATP2A2 | Ca2+-ATPase activity, activator | porcine cardiac SR vesicles | maximal Ca2+ activity | – | EC50 | 4.8 ± 1.8 µM
Nc1ncnc2c1ncn2[C@@H]1O[C@H](COP(=O)(O)OP(=O)(O)OP(=O)(O)O)[C@@H](O)[C@H]1O | Ribonuclease L (Sus scrofa, UniProt A5H025) | binding, fluorescence polarization | – | with: BODIPY-labelled compound | – | EC50 | 1.85 ± 0.08 µM
CC1=CC(=NOCC(=O)N2CCCCC2)Cc2cc(O)cc(O)c2C(=O)OCCC=CCC1 | HSP90AA1 (Homo sapiens, UniProt P07900) | binding, fluorescence polarisation competition | – | 20 nM HSP90, E/Z oxime mixture, with: fluorescein-labelled 17-AAG analogue | – | EC50 | 0.046 µM
O=c1cc(-c2ccccc2OCc2ccc(Br)cc2F)ncn1C1CCCCC1O (stereo not drawn) | CHRM1 | positive allosteric modulator, IP1 accumulation | CHO-M1 cells | 1 µM, 60 min, 37 °C, with: ACh | baseline: ACh alone, higher = stronger potentiation | ΔpEC50 of ACh | 0.37 ± 0.09 log units
CC(C)C[C@H](NC(=O)CC[C@@H](C)[C@H]1CC[C@H]2[C@@H]3[C@H](O)C[C@@H]4C[C@H](O)CC[C@]4(C)[C@H]3C[C@H](O)[C@]12C)C(=O)O | GPBAR1 | G protein activation, agonist, BRET | – | – | – | EC50 | 1150 µM
O=Cc1c(-c2ccccc2)[nH]c2ccccc12 | RAW264.7 | sulforhodamine B | – | 50 µM, 20 h | baseline: vehicle | viability | 110 ± 6.7%
O=C(Cn1c(=O)ccn([C@@H]2O[C@H](COP(=O)(O)OP(=O)(O)OP(=O)(O)O[C@H]3O[C@H](CO)[C@@H](O)[C@H](O)[C@H]3O)[C@@H](O)[C@H]2O)c1=O)c1ccccc1 | P2RY2 | PLC activation, agonist | 1321N1, transfected | – | – | EC50 | > 10 µM
CCCCN(Cc1ccccc1OC)C(=O)c1cc(C)c(C)s1 | ATP2A2 | Ca2+-ATPase activity, activator | porcine cardiac SR vesicles | maximal Ca2+ activity | – | EC50 | 4 ± 0.8 µM
O=c1ccn([C@@H]2O[C@H](COP(=O)(O)OP(=O)(O)OP(=O)(O)O[C@H]3O[C@H](CO)[C@@H](O)[C@H](O)[C@H]3O)[C@@H](O)[C@H]2O)c(=O)[nH]1 | P2RY2 | PLC activation, agonist | 1321N1, transfected | – | – | EC50 | > 10 µM
CCCC[C@H](NC(=O)[C@H](CO)NC(=O)[C@H](Cc1ccc(O)cc1)NC(=O)[C@H](CO)NC(C)=O)C(=O)N[C@@H](CCC(=O)O)C(=O)N[C@@H](C)C(=O)N[C@H](Cc1ccccc1)C(=O)N[C@@H](CCCNC(=N)N)C(=O)N[C@@H](Cc1c[nH]c2ccccc12)C(=O)NCC(=O)N[C@@H](CCCCN)C(=O)N1CCC[C@H]1C(=O)N[C@H](C(N)=O)C(C)C | Melanocortin receptor 4 | – | – | – | – | EC50 | 0.00032 ± 4e-05 µM
O=c1[nH]c(=O)n([C@@H]2O[C@H](COP(=O)(O)OP(=O)(O)OP(=O)(O)O[C@H]3O[C@H](CO)[C@@H](O)[C@H](O)[C@H]3O)[C@@H](O)[C@H]2O)cc1I | P2RY2 | PLC activation, agonist | 1321N1, transfected | – | – | EC50 | > 10 µM
CCCC[C@H](NC(=O)[C@H](CO)NC(=O)[C@H](Cc1ccc(O)cc1)NC(=O)[C@H](CO)NC(C)=O)C(=O)N[C@@H](CCC(=O)O)C(=O)N[C@@H](Cc1c[nH]cn1)C(=O)N[C@H](Cc1ccccc1)C(=O)N[C@@H](C)C(=O)N[C@@H](Cc1c[nH]c2ccccc12)C(=O)NCC(=O)N[C@@H](CCCCN)C(=O)N1CCC[C@H]1C(=O)N[C@H](C(N)=O)C(C)C | Melanocortin receptor 4 | – | – | – | – | EC50 | 0.00456 ± 0.00057 µM
c1cncc(-c2cc3ccccc3[nH]2)c1 | RAW264.7 | NO release, inhibitor, Griess | – | 50 µM, 20 h, LPS-stimulated | – | inhibition | 46.6%
COC(=O)[C@H](CCCCNC(=O)[C@H](CC1CCCCC1)NC(=O)c1cccs1)NC(=O)c1cccc(O)c1 | PPM1D (Homo sapiens, UniProt O15297) | γH2AX level increase, inhibitor, ELISA | MCF7 | 75 min after irradiation, pretreated 1 h, with: 10 Gy ionizing radiation | – | EC50 | 56 ± 5 µM
CCN(Cc1ccccc1OC)C(=O)c1cccc(Br)c1F | ATP2A2 | Ca2+-ATPase activity, activator | porcine cardiac SR vesicles | maximal Ca2+ activity | – | EC50 | 5.9 ± 1.3 µM
CC1=NN(CC(=O)Nc2ccc(Br)cc2)C(=O)CC1C (racemic) | N-formyl peptide receptor 3 (Homo sapiens, UniProt P25089) | calcium signal, agonist | – | – | – | EC50 | 11.8 µM
CCCC[C@H](NC(=O)[C@H](CO)NC(=O)[C@H](Cc1ccc(O)cc1)NC(=O)[C@H](CO)NC(C)=O)C(=O)N[C@@H](C)C(=O)N[C@@H](Cc1c[nH]cn1)C(=O)N[C@H](Cc1ccccc1)C(=O)N[C@@H](CCCNC(=N)N)C(=O)N[C@@H](Cc1c[nH]c2ccccc12)C(=O)NCC(=O)N[C@@H](CCCCN)C(=O)N1CCC[C@H]1C(=O)N[C@H](C(N)=O)C(C)C | Melanocortin receptor 4 | – | – | – | – | EC50 | 0.00058 ± 3e-05 µM
BP(=O)(OC[C@H]1O[C@@H](n2cnc3c(N)ncnc32)[C@H](O)[C@@H]1O)OP(=O)(O)OP(=O)(O)OC[C@H]1O[C@@H](n2cnc3c(N)ncnc32)[C@H](O)[C@@H]1O (stereo partly drawn) | P2Y purinoceptor 4 (P2RY4, Homo sapiens, UniProt P51582) | intracellular calcium rise, agonist | 1321N1 expressing human P2Y4 | 37 °C | – | EC50 | > 100 µM

For quick reference, copied from above:
Compound | target or system | assay | system | conditions | scale | measurement | result
Cn1cc(-c2ccc(CN3C(=O)CCCc4ccccc43)c(F)c2)cn1 | CHRM1 | calcium response, positive allosteric modulator | HM1 cells | with: acetylcholine | – | EC50 | > 30 µM
c1cnc2c(c1)ccc1cccnc12 | TAS2R5 (Homo sapiens, UniProt Q9NYW4) | calcium signal, agonist | – | – | – | EC50 | 22.9 µM
CC(C)C[C@H](NC(=O)CC[C@@H](C)[C@H]1CC[C@H]2[C@@H]3[C@H](O)C[C@@H]4C[C@H](O)CC[C@]4(C)[C@H]3C[C@H](O)[C@]12C)C(=O)O | GPBAR1 | G protein activation, agonist, BRET | – | – | – | EC50 | 1150 µM
COC(=O)[C@H](CCCCNC(=O)[C@H](CC1CCCCC1)NC(=O)c1cccs1)NC(=O)c1cccc(O)c1 | PPM1D (Homo sapiens, UniProt O15297) | γH2AX level increase, inhibitor, ELISA | MCF7 | 75 min after irradiation, pretreated 1 h, with: 10 Gy ionizing radiation | – | EC50 | 56 ± 5 µM
O=c1cc(-c2ccccc2OCc2ccc(Br)cc2F)ncn1C1CCCCC1O (stereo not drawn) | CHRM1 | positive allosteric modulator, IP1 accumulation | CHO-M1 cells | 1 µM, 60 min, 37 °C, with: ACh | baseline: ACh alone, higher = stronger potentiation | ΔpEC50 of ACh | 0.37 ± 0.09 log units
